Published values of several laboratories.
Each numbered part is a random draw from the data of one study; scales do not carry over between parts.

Block 1 — method: protein binding microarray; molecule type: double-stranded DNA, one strand shown; medium: in vitro; tested at: not given; relative to: not given; direction: higher = stronger binding
Target: Histone acetyltransferase KAT6A, winged helix 2, GST fusion (KAT6A, Homo sapiens, UniProt Q92794, residues 85-181)
Notes: 8-mer, flanks averaged, mean of 2 arrays, mostly near background
Residues (chain): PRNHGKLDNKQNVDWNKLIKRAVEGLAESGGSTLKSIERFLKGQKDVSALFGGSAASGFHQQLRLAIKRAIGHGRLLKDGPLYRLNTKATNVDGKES
Strand | E-score
TCGATAAA | -0.0426
ATAGTGAC | -0.107
ATAACCGA | -0.0485
ATCGCCAA | -0.0982
ACCACCTA | -0.276
CGTGCAGC | -0.0293
GTACACTA | -0.151
GCGGAGTA | 0.033
ATACCGCG | 0.0524
CTACGCTA | -0.0928
ATTGGAGA | -0.0174
CCGCGGGA | 0.0811
GACGGGGC | 0.0885

Block 2 — method: RNA Bind-n-Seq; molecule type: RNA; medium: in vitro; tested at: not given; relative to: input RNA pool; direction: higher = stronger binding
Target: RING finger protein unkempt homolog, zinc fingers 1-6, GST-SBP tag (UNK, Homo sapiens, UniProt Q9C0B0, residues 30-357)
UniProt Q9C0B0, sequence (30-357, looked up): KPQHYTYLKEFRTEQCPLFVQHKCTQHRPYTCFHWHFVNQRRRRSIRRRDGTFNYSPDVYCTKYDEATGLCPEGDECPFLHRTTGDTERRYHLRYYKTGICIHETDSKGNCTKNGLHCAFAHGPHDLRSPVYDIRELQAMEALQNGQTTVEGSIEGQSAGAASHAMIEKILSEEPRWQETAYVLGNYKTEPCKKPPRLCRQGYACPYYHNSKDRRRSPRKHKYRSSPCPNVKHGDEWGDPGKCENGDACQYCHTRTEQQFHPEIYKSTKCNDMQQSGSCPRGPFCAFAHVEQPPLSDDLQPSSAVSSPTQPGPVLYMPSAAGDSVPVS
Notes: RNA with constant flanks, human and mouse sites, ends assumed
All sequences stand within: GGGAGUUCUACAGUCCGACGAUC … CAACAGAGGAUUGAGCAUCA
Strand | bound/input enrichment [ratio]
ACCACUGGUGGAAUUGAUGAUAUGUGUCUGAAGUAUUUUGUGGAGGCUGGUGCUAUGGCAGUUAGAAGAGUUUUAAAAAGGGACCUUAAACGCAUUGCCAAAGCUUCUGGAGCAACUAUU | 0.291
UCUCCCGUGUUACCAAUGUGUAUGGUCUCCUUCUCCCGAAAGUGUACUUAAUCUUUGCUUUCUUUGCACAAUGUCUUUGGUUGCAAGUCAUAAGCCUGAGGCAAAUAAAAUUCCAGUAAU | 0.395
UGUGAGAACCUGCCCGCUGAAGGUAGAGAGACUGUAAUUAUGAAUCAAAUCCUGCCCUAUAUAAAGGAAUUAGUGUCUGAUACCAACCAACAUGUCAAGUCAGCGCUAGCUUCUGUAAUU | 0.284
UCCUAAUACUCCACAUUCAAACUGAAGAGGAAAAUUGAAAUCUCUAAUGAAGCUGCUGUGUGUAUUUAUGAAUAUUAAUGAAUAAAAACUGCUUGGAUGGUUUACCUAACUACUGCAUGA | 1.36
UUUGUUGCUGCUUCCUAUGAUAUACGAGGAAACUUCAUCAAAUGGCAACCUUUAGAAGGUGGUGUUUUACAGCUUUGUCCAGACACUGAGAGAAGGCUGGAUGCAGCGUAUGCUUUUGGA | 0.217
AUGAGUAAGCAGUACGGCAGCGAGACGUUUUUGGCCAAGCUUAUUGCUCAGGCUUGUGUUUCUAUCUUUCCUGAUUCUGGCAAUUUCAAUGUUGAUAACAUCAGAGUAUGUAAGAUUCUG | 0.221
GAUUUUUAUUUUAUGUAUAUGAGUACACUGUAGCUGUCUUCAGACACACCAGAAGAGGGCAUAGAAUCCCAUUACAGAUUAUUGAGAGCCACCAUGUGAUUACUGGGGAUUGAACUCAUG | 0.4

Block 3 — method: protein-binding microarray; molecule type: double-stranded DNA, one strand shown; medium: in vitro; tested at: not given; direction: higher = stronger binding
Target: Max-binding protein MNT, bHLH-zipper, MAX partner unstated (MNT, Homo sapiens, UniProt Q99583, residues 220-300)
Notes: k-mer, scored over probes, only values ≥0.25
Construct (chain): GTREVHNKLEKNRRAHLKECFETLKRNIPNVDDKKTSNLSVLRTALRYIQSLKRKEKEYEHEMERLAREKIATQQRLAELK
Strand | E-score
ATGCTTCC | 0.263
AACTCGTG | 0.39
CCCCACGC | 0.412
CCACCTGC | 0.344
ACGCGTGG | 0.453
ATTGCATG | 0.267
GAACGTGC | 0.385
CACGCCGG | 0.352
CAGCGTGA | 0.294
GCGTGGAA | 0.396
CACGTTCC | 0.406
CGCGGGTA | 0.284
ACCCCGCC | 0.38
GGTGGGTA | 0.299
CATGGTAC | 0.362
CGTCATGC | 0.251
CGTGAACC | 0.257

Block 4 — method: aptamer microarray, sandwich; molecule type: DNA with 2'F-ANA; medium: in vitro; tested at: 200 nM; added: Cy3 exosite-II aptamer, 400 nM; direction: higher = stronger binding; strand: GGTTGGTGTGGTTGG
Target: Prothrombin, mature alpha-thrombin (F2, Homo sapiens, UniProt P00734)
Notes: whole 15-mer aptamer, many near background
Modification | mean fluorescence intensity
2'F-ANA at 1 2 3 4 5 8 9 12 | 118 a.u.
2'F-ANA at 2 6 7 9 10 11 12 | 145 a.u.
2'F-ANA at 1 4 6 8 9 10 12 14 | 62.8 a.u.
2'F-ANA at 4 7 8 10 11 13 14 | 59.4 a.u.
2'F-ANA at 3 6 7 14 | 650 a.u.
2'F-ANA at 2 3 5 8 9 12 15 | 257 a.u.
2'F-ANA at 1 2 5 7 11 12 15 | 79 a.u.
2'F-ANA at 1 5 7 8 11 14 | 45.3 a.u.
2'F-ANA at 1 4 5 7 11 | 49.9 a.u.
2'F-ANA at 1 3 4 6 7 11 12 13 14 15 | 72.3 a.u.
2'F-ANA at 1 3 7 9 12 14 | 114 a.u.
2'F-ANA at 1 9 12 | 417 a.u.
2'F-ANA at 2 3 6 9 12 13 | 797 a.u.
2'F-ANA at 4 7 10 12 13 14 | 61.9 a.u.
2'F-ANA at 1 6 7 8 9 10 11 12 13 14 15 | 50 a.u.
2'F-ANA at 1 3 4 5 7 9 10 11 14 15 | 77.5 a.u.
2'F-ANA at 1 2 3 5 6 10 12 13 14 | 51.6 a.u.
2'F-ANA at 1 2 3 4 5 6 9 10 11 13 14 15 | 52.8 a.u.
2'F-ANA at 2 5 6 7 9 10 12 13 14 | 47 a.u.
2'F-ANA at 1 2 6 8 9 10 11 12 | 63 a.u.
2'F-ANA at 2 4 8 12 13 15 | 494 a.u.
2'F-ANA at 3 4 6 7 8 9 10 12 13 | 307 a.u.
2'F-ANA at 2 4 5 8 10 | 102 a.u.
2'F-ANA at 2 3 5 9 11 13 14 | 51.4 a.u.

Block 5 — method: RNA Bind-n-Seq; molecule type: RNA; medium: in vitro; tested at: 365 nM; relative to: no-protein control; direction: higher = stronger binding
Target: RNA binding protein fox-1 homolog 2, RRM domain, GST-SBP tag (RBFOX2, Homo sapiens, UniProt O43251-10, residues 100-194)
Notes: natural RNA segment, single round, ends assumed
All sequences stand within: GGGAGUUCUACAGUCCGACGAUC … UGGAAUUCUCGGGUGCCAA
Residues (chain): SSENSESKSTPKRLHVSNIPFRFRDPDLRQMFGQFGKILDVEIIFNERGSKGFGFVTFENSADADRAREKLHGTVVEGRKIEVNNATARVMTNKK
Strand | RBNS enrichment (R)
UGUGUGUGUAGUUUUAAUUAUGCUGCAAUGUAUAAUCUGGUGUGUUAUUUAAACAGCACUAGUACUGUACACUGGUUUUCCCUUGUGUUUGCUGUUGCACACUGAUUGCU | 0.553
CUGCACUUCCCUUGUGAUAUCAAAGUAUAACAAACGUGCUAAUUUUUCUUAAUAUCCCUCUAUAAUGCCAGAAAUUGGCAUAAAUGGUACAUUCACUAAAUUUAUCAAAU | 0.409
UUGUGUGAUAAGCACUAAGCAGUCAGUCCCCUGGGGGAAUCUGGCAUAAUUCGGCUAUAAAUGUAGCAAUGCUUGGAAAGGUAGUCAUCAAAUGAGACUAUUUGAGGGGA | 0.303
GUGAUGUCUUUCAGGGAAGCAGUGUUUGAAAUAGAUAGCGGGUACCUUCCCUGGAUGGAGUCAGGGCGGGGGCACUGUCCUCCACUGCUAGACACCCCCAGAAUGCCUGG | 1.25
UUAGGCCCUCAAGACCCUUUUGGGUUUCUGCCCUGCCCACCCUCUGGAGAAGGUGGGCACUGGAUUAGUUAACAGACAACACGUUACUAGCAGUCACUUGAUCUCCGUGG | 0.251
UAAACCGUAUAUUGAAAAAAACAGAAUGUCACUAAAUGCAUAUUAAGUCAAGUAUUGGAAAGUAUAAAAGAAAAAUCAUUCUGACAAUUUCUAAGCCAGAAGCAAACAAG | 0.736
UUAUGCUAAAAUCCCAGAUGUUGUAGGACUGUACUUCUGUAGAGUUUAGACUGAGCAUCGAUCCCGUCUCCCCGCGAGUGCUGUCGGACUCCGUCCCCAAGGGCCAGGCC | 0.701
UUCCUCUGAAAUGGAUAUAAAGAUGUAAAUUUUAUAACAGCACUGUUUAUUCUGAUGCAUUCUGAUGGGUCAGUGUCGUGUCAUUAAUUAAUAAAGGCAUUUUCUUCUCA | 1.66
GUAUUGCCUAUUCUUCAAGUACACAAAAACAUUUUGGAGGCCUCAAUUAUGAGUGGCAGAGCUUUCUGUGUAUAAUUUGUCUACAUAAUUUGUCUAAUAAAAAUGUUUUC | 0.945
AGUGUGGCAGCUUUCACAGCACAGGACCGUUCAUCGGGGGCCUAAACGUUUCCCUCAGCUCUGUCACCAACUCACUUCUCUCGGCUUCGUUGUCUGUAAAUUGGAUGAAA | 0.438
CCGCAGUGGCUAUCCUAGUGUACAUUCUCCUGGAGAGCAGCUUCUGUGGCUGAAUCAGGUGUCCAGGUGAAGACAGGCCCUGUCCUGGAACCUGGAAUCACACAUACCUC | 0.209
GGGGGCUCCCUGGCGCAUGCCUGCUCCUGUCCCUGGAUUACCACACGUGCCCUCCCUGCCACCCUCCGUCUAGAGCAAGCGGAUGCCCCCCAGCCUGCAGCAGAAGCCUC | 2.23

Block 6 — method: protein-binding microarray; molecule type: double-stranded DNA, one strand shown; medium: in vitro; tested at: 2540 nM top; notes: 60-bp whole probe; added: salmon DNA 0.4 mg/ml; relative to: random background probes; direction: higher = stronger binding; all sequences stand within: GCCTAGCAC … GTCTTGATTCGCTTGACGCTGCTG
Target: Interferon regulatory factor 3, full length, phosphomimetic (IRF3, Homo sapiens, UniProt Q14653, residues 1-427, S386D/S396D/S398D/S402D/T404D/S405D)
Construct (chain): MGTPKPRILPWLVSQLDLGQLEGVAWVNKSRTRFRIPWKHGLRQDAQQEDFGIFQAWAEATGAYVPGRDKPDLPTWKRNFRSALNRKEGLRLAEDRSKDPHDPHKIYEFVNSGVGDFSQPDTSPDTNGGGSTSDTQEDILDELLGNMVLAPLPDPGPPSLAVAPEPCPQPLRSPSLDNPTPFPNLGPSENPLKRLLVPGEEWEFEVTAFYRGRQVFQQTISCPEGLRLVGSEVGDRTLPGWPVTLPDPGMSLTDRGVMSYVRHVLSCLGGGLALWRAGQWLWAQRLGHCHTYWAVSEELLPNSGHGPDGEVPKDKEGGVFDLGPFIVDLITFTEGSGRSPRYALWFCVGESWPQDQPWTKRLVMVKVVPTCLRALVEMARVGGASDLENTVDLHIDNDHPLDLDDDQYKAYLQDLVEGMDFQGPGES
Strand | fitted relative affinity
GACGATCTCAGACTGGAGACGTGCTAG | 0.248 z-score
TTAGGTTTCGGGTATCGGTTGGTGCTA | 4.44 z-score
TTAGGTATGCTACTGCTTTAGTGCTAG | -0.685 z-score
TCACTTTTGAGAGATGGAACTGTGCTA | 0.713 z-score
GACGTACTGGGGACTGGAGACGTGCTA | -0.639 z-score
GACGATTTCGGGACTGGAGAAGTGCTA | 1.93 z-score
GACGTTTTCGGTATCGGGACGTGCTAG | 5.14 z-score
TTAGATCTCAGTCTCGATTAGTGCTAG | 0.802 z-score
GACGGTATCAGGTTTCGGGACGTGCTA | 3.5 z-score
GACGGTTTCGGGTATCGGGATGTGCTA | 4.69 z-score
GTGGCAGGCCCTCGGGCTCCGTGCTAG | -1.59 z-score
CCAGCAGGGTTAGGCTTGCTGTGCTAG | -0.805 z-score
TCTTGTCTGGATGTGCCTTAGTGCTAG | 0.102 z-score
TTAGATATAAGTATCGATTAGTGCTAG | 0.501 z-score
TCAATTTTCATTATTGCACTGTGCTAG | 1.7 z-score
AAAGATTTATCAAATGTGGGAGTGCTA | -0.396 z-score
TTGTATCTGGGTTCCCCCCCGTGCTAG | 0.142 z-score
TTAGGTATCGACTTTCGTTTAGTGCTA | 1.42 z-score
TTAGGTAACCTTCTCCTTTAGTGCTAG | 2.52 z-score
TACTCTACAGGGTTTCACTTTGTGCTA | 1.82 z-score

Excerpt of the above (block 3):
Strand | E-score
AACTCGTG | 0.39
GCGTGGAA | 0.396
CCCCACGC | 0.412
CGTCATGC | 0.251
ACCCCGCC | 0.38
CACGTTCC | 0.406
ACGCGTGG | 0.453
CACGCCGG | 0.352
CATGGTAC | 0.362
CAGCGTGA | 0.294
GGTGGGTA | 0.299
CCACCTGC | 0.344
